Published values pooled from the literature.
Each numbered part is a random draw from the data of one study; scales do not carry over between parts. Several values in a cell are separate wells, animals, samples, runs or records.
UniProt P05164, sequence (whole entry, looked up): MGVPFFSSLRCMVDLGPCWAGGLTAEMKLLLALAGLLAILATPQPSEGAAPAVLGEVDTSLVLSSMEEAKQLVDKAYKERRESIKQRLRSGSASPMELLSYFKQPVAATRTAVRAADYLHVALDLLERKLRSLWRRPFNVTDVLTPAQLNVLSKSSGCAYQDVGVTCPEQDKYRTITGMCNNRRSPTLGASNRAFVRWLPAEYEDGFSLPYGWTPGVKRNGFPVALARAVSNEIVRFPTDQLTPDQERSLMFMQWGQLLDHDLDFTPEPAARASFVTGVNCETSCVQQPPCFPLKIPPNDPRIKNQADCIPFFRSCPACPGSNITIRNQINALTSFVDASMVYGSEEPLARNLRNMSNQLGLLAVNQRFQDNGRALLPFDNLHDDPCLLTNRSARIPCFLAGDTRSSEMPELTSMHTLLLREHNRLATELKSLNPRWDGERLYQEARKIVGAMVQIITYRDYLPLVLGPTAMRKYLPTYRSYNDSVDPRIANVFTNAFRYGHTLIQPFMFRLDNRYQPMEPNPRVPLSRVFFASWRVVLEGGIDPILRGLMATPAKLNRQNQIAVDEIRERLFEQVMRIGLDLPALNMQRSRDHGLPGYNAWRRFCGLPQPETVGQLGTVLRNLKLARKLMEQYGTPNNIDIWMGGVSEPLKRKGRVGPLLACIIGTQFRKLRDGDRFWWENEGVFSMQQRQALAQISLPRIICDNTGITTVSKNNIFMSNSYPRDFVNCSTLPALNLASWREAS
UniProt Q695T7, sequence (whole entry, looked up): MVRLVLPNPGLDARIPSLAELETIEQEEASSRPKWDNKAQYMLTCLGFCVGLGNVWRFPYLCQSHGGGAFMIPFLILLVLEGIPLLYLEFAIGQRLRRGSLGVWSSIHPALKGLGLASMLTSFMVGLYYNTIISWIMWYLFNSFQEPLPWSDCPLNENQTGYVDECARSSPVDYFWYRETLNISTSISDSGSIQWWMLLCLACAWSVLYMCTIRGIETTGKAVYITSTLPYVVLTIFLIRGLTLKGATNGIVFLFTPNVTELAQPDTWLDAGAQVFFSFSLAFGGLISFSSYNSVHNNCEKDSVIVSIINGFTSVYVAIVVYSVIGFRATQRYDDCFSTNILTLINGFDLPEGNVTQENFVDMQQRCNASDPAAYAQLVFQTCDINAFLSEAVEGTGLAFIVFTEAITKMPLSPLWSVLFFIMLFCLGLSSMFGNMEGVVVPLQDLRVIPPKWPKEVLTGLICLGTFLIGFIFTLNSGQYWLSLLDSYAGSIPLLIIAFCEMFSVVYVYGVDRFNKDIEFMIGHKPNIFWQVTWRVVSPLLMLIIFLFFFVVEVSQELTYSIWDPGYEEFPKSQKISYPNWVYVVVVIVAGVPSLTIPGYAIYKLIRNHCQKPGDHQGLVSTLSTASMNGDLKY

Set 1
SMILES: C[C@@H]1CN(c2ccc(-c3cc(C(=O)NCCOCCOCCOCCOCCNC(=O)/C=C/c4[nH]cc(C(=O)N[C@@H](CC(N)=O)c5ccc(F)c(Cl)c5)c4-c4ccc(Cl)cc4F)ccc3F)cc2NC(=O)c2c[nH]c(=O)cc2C(F)(F)F)C[C@H](C)N1C
Read-out: thermal unfolding
Method: differential scanning fluorimetry
Tested at: 5.5 µM
Direction: higher = more unfolded
Endpoint: SYPRO Orange fluorescence
WDR5: WD repeat-containing protein 5 (WDR5, Homo sapiens, UniProt P61964)
DCAF1: DDB1- and CUL4-associated factor 1 (DCAF1, Homo sapiens, UniProt Q9Y4B6)
UniProt Q9Y4B6, sequence (whole entry, looked up): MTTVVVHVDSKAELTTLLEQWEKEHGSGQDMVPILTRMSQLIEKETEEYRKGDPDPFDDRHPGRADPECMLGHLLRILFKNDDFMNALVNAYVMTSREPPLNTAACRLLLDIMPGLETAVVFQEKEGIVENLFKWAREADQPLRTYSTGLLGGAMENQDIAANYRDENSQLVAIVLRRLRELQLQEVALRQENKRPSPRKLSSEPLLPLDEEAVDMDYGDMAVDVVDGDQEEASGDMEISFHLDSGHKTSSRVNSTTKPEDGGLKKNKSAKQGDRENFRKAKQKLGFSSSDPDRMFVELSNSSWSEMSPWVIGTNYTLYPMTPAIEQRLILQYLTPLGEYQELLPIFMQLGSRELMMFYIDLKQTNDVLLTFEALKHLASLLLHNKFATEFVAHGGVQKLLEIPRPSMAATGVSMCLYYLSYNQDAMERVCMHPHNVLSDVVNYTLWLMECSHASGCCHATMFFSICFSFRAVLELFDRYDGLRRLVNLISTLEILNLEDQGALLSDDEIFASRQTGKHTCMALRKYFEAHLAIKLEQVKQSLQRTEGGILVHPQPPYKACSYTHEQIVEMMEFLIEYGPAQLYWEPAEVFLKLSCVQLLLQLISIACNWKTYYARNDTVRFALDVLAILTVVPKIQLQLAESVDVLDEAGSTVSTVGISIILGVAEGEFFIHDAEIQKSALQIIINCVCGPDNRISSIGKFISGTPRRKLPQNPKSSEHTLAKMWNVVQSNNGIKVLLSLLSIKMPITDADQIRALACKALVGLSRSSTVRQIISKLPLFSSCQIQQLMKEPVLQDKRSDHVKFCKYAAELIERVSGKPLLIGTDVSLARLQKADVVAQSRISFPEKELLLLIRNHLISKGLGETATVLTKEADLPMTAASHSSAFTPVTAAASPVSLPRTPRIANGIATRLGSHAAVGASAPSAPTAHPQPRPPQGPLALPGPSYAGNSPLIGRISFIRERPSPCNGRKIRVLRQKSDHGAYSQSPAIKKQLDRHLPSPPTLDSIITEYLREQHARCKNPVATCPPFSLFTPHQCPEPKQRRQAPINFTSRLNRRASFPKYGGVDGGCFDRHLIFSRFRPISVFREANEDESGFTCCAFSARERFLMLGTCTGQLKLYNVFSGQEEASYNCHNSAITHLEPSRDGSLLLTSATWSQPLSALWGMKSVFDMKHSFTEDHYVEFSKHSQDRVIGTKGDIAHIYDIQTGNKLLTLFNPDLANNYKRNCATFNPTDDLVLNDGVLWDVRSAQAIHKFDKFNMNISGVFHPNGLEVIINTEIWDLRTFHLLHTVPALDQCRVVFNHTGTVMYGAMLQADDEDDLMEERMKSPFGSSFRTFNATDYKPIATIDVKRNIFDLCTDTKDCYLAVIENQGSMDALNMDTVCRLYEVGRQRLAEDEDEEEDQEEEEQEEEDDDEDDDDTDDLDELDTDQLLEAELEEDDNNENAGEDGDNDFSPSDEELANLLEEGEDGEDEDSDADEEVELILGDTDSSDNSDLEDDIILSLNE
WDR5; 41.4 °C: 14400 a.u.
WDR5; 81.61 °C: 45000 a.u.
WDR5; 60.81 °C: 15400 a.u.
WDR5; 70.61 °C: 17000 a.u.
DCAF1; 58.61 °C: 34000 a.u.
DCAF1; 42.6 °C: 12300 a.u.
DCAF1; 73.21 °C: 52000 a.u.
DCAF1; 25.8 °C: 8960 a.u.
WDR5; 30 °C: 12700 a.u.
DCAF1; 87.41 °C: 37500 a.u.
DCAF1; 40 °C: 11600 a.u.

Set 2
Compound: O=C(O)C1(O)Oc2cc(F)ccc2N(Cc2ccccc2)C1=O (stereo not shown)
Tested at: 50 µg/mL
Endpoint: root length
Arabidopsis thaliana; Col-0, seedlings; together with: BCAA: 1.01 cm
Arabidopsis thaliana; Col-0, seedlings; 1/2 MS medium: 0.01 cm
Arabidopsis thaliana Col-0 seedlings; together with: branched-chain amino acids: 1.04 cm and 0.98 cm and 1.03 cm and 1 cm and 1.02 cm and 0.99 cm and 1.01 cm

Set 3
Compound: CCN1/C(=C/C=C2\CCCC(/C=C/C3=[N+](CC)c4ccccc4C3(C)C)=C2NCCCCCCCCN2CCC(Nc3nc4ccccc4n3Cc3ccc(F)cc3)CC2)C(C)(C)c2ccccc21
Cell line: U-87 MG
Tested at: concentration not given
Reference: DMSO
Endpoint: log2 fold change
item: ACACB mRNA: -0.883
item: APOLD1 mRNA: -1.08
item: HSPA1B mRNA: 3.56
item: HAS1 mRNA: -1.35
item: DYRK3 mRNA: 1.61
item: IL6 mRNA: 4.6
item: SYNC mRNA: -1.11
item: SEC24A mRNA: 1.01
item: DEPDC1 mRNA: -1.31
item: TRIP13 mRNA: -1.16
item: ARHGAP33 mRNA: -1.82
item: NDEL1 mRNA: 0.965
item: SMIM10 mRNA: -2.09
item: NFKBIA mRNA: 1.03
item: TYMS mRNA: -1.81
item: PANK1 mRNA: -1.14

Set 4
Target: Cyclin-dependent kinase 12, with cyclin K (CDK12, Homo sapiens, UniProt Q9NYV4)
UniProt Q9NYV4, sequence (whole entry, looked up): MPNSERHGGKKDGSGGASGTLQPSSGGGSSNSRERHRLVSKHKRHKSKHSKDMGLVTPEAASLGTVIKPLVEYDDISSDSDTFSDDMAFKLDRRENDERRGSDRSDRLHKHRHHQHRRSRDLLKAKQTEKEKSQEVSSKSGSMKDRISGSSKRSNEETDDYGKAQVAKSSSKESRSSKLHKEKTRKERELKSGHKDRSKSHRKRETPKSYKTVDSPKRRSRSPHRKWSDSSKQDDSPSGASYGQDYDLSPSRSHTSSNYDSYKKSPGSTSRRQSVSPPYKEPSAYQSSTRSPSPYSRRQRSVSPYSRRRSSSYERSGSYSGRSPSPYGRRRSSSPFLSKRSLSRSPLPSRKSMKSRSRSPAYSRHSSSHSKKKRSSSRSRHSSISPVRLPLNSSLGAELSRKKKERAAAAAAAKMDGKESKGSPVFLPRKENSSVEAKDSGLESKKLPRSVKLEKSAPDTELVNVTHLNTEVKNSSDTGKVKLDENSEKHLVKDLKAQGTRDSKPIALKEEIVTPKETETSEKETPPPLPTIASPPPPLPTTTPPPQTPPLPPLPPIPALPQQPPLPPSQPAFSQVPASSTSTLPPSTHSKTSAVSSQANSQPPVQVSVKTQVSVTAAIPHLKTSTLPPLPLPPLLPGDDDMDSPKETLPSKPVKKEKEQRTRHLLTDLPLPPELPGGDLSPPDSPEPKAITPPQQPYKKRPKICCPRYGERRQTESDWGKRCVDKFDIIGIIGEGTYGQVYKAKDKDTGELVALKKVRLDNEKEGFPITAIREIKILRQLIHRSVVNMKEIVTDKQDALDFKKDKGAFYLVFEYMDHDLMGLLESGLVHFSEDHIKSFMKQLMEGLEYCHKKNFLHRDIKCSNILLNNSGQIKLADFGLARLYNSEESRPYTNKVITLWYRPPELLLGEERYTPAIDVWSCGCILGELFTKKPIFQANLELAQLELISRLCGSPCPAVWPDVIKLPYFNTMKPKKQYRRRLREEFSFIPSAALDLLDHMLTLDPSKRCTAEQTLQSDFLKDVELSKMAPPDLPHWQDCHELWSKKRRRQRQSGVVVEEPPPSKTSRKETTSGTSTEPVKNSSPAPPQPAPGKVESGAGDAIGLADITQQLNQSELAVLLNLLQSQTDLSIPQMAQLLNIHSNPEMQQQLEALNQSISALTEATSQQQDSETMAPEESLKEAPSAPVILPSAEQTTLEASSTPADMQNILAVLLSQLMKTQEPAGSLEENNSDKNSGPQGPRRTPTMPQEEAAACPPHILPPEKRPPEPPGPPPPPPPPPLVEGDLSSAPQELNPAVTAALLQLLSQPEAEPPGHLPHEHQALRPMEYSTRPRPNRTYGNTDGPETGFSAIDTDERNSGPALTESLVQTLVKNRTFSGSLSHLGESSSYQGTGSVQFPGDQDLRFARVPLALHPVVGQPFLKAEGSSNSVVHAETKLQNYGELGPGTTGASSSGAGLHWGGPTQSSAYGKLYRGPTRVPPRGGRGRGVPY
Read-out: kinase activity
Action: inhibitor
Method: ADP-Glo
Tested at: 2 µM
Endpoint: inhibition
CCn1cnc2c(NCc3nc4cc(Cl)c(Cl)cc4[nH]3)nc(N3CCN(C(=O)c4ccccc4)CC3)nc21: 91.4%
CCn1cnc2c(NCc3nc4cc(Cl)c(Cl)cc4[nH]3)nc(N3CCN(C(=O)c4cccnc4)CC3)nc21: 88.4%
CCn1cnc2c(NCc3nc4cc(F)c(F)cc4[nH]3)nc(N3CCn4ncnc4C3)nc21: 86.2%
CC(=O)N1CCN(c2nc(NCc3nc4cc(Cl)c(Cl)cc4[nH]3)c3ncn(C(C)C)c3n2)CC1: 13.5%
CCn1cnc2c(NCc3nc4cc(Cl)c(Cl)cc4[nH]3)nc(N3CCN(C(=O)c4ccccn4)CC3)nc21: 87.6%
CCn1cnc2c(NCc3nc4cc(Cl)c(Cl)cc4[nH]3)nc(N3CCN(C(=O)c4ccncc4)CC3)nc21: 91.9%
CC(=O)N1CCN(c2nc(NCc3nc4cc(Cl)c(Cl)cc4[nH]3)c3ncn(C)c3n2)CC1: 67.8%
CCCCOc1nc(NCc2nc3cc(Cl)c(Cl)cc3[nH]2)c2ncn(CC)c2n1: 76.9%
CCn1cnc2c(NCc3nc4cc(Cl)c(Cl)cc4[nH]3)nc(N3CCN(Cc4ccncc4)CC3)nc21: 74.3%

Set 5
SMILES: COc1cc(C(=O)OCCCN2CCCN(CCCOC(=O)c3cc(OC)c(OC)c(OCc4ccc([N+](=O)[O-])cc4)c3)CC2)cc(OC)c1OC
Target: Equilibrative nucleoside transporter 1 (SLC29A1, Homo sapiens, UniProt Q99808, del243-274/L168F/N288K/P175A)
UniProt Q99808, sequence (whole entry, unmodified, looked up): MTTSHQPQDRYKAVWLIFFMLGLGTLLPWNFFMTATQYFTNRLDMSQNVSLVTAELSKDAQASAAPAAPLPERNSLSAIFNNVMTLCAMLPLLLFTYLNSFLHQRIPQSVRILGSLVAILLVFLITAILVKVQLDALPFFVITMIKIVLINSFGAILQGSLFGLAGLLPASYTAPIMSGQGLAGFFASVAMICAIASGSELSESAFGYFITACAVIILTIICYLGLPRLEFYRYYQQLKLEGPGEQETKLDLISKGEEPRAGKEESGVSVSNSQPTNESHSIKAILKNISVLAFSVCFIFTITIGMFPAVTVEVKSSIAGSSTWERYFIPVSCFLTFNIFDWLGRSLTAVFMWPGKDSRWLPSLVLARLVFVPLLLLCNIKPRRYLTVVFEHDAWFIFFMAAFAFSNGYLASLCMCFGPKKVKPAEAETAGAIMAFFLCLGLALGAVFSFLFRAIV
Action: competitor
Method: scintillation proximity
Endpoint: [3H]NBMPR binding
4.354 nM: 99.1% and 94.6% and 85.1% and 98.8% and 99.2% and 108%
19.22 nM: 87% and 72.7% and 87.2% and 70.2% and 74.1% and 94.7%
236.2 nM: 26.7% and 32.5% and 36.4% and 29.5% and 36.5% and 34.1%
1.869 nM: 107% and 89.8% and 95.5% and 94.6% and 97.5% and 96.2%

Set 6
Structure (SMILES): Cc1ncsc1-c1ccc(C(CO)NC(=O)C2CC(O)CN2C(=O)C(C(C)C)n2cc(-c3ccc(COc4c(-c5c(C)c(F)cc6[nH]ncc56)c(C5CC5)cc5c(N6CC7CC6CN7)nc(OC6CCOCC6)nc45)cc3)nn2)cc1 (stereo not shown)
Endpoint: tumour volume
mouse, PK-59 xenograft; subcutaneous, 30 mg/kg once daily, day 22: 23.8 mm3 and 28.2 mm3 and 24.6 mm3 and 25.4 mm3 and 33 mm3
mouse, lung LXFA sample A PDX; 30 mg/kg twice weekly, day 15: 63.4 mm3 and 49.9 mm3 and 130 mm3 and 77.9 mm3 and 5.3 mm3 and 116 mm3 and 35.6 mm3 and 83.8 mm3
mouse, HT-29 xenograft; sc, 30 mg/kg once daily, day 8: 463 mm3 and 518 mm3 and 444 mm3 and 586 mm3 and 468 mm3
mouse, PK-59 xenograft; 3 mg/kg, day 17: 527 mm3 and 523 mm3 and 375 mm3 and 447 mm3 and 376 mm3
mouse, lung LXFA sample A PDX; 10 mg/kg twice weekly, day 0: 87.4 mm3 and 140 mm3 and 66.8 mm3 and 233 mm3 and 108 mm3 and 217 mm3 and 121 mm3 and 60.4 mm3
GP5d xenograft, mouse; 30 mg/kg twice weekly, day 4: 193 mm3 and 135 mm3 and 120 mm3 and 130 mm3 and 111 mm3
mouse, PK-59 xenograft; 10 mg/kg, day 14: 338 mm3 and 299 mm3 and 295 mm3 and 218 mm3 and 253 mm3
mouse, PK-59 xenograft; 1 mg/kg, day 10: 694 mm3 and 704 mm3 and 813 mm3 and 581 mm3 and 668 mm3
mouse, HT-29 xenograft; sc, 30 mg/kg once daily, day 10: 581 mm3 and 561 mm3 and 669 mm3 and 703 mm3 and 551 mm3
mouse, PK-59 xenograft; subcutaneous, 30 mg/kg once daily, day 1: 100 mm3 and 118 mm3 and 134 mm3 and 123 mm3 and 103 mm3

Further values, each from its own experiment
E3 ubiquitin-protein ligase NEDD4: E3 ubiquitin-protein ligase NEDD4 (Homo sapiens, UniProt P46934)
CNC(=O)/C=C/CNCCCN1c2ccccc2CCc2ccc(Cl)cc21.Cl  inhibition (E3 ubiquitin-protein ligase NEDD4; enzyme activity, inhibitor, TR-FRET; 11 µM): 19.6%
CC(=O)N[C@@H](Cc1c[nH]c2ccccc12)C(=O)N[C@@H](CCC(=O)C=[N+]=[N-])C(=O)OC(C)C  FGAR level (mouse, EL4 tumour-bearing, EL4 tumour; subcutaneous, dose not given): 667 nmol/g
Cc1ccc2nc3c(c(Nc4ccc(Br)cc4)c2c1)CCC3  selectivity index (Leishmania donovani; THP-1 macrophages, DD8; reference: THP-1 CC50 over amastigote IC50): 4.31
Cl.NC(=O)/C=C/CNCCCN1c2ccccc2CCc2ccc(Cl)cc21  inhibition (E3 ubiquitin-protein ligase NEDD4; enzyme activity, inhibitor, TR-FRET; 33 µM): 34.2%
CCCNC(=O)COc1ccc(I)c(C)c1  normalised transport activity (Sodium-dependent neutral amino acid transporter B(0)AT1 (SLC6A19, Homo sapiens, UniProt Q695T7); inhibitor, FLIPR membrane potential; CHO-BC cells; 0.001 µM): 0.942
CC(C)OC(=O)[C@H](CCC(=O)C=[N+]=[N-])NC(=O)[C@H](Cc1c[nH]c2ccccc12)NC(=O)CN1CCN(C)CC1  DON concentration (P493B lymphoma cells; P493B cells in human plasma; concentration not given, tumour cell fraction of partition): 1.64 nmol/g
Cc1ccc(O)c(C)c1-c1cnc2[nH]c(-c3cnc(N4CCC5(CC4)CC(N4CCN(c6ccc(N[C@H]7CCC(=O)NC7=O)cc6F)CC4)CO5)nc3)cc2c1C#N (single isomer, unassigned)  tumour growth inhibition (mouse HCC1569 xenograft; oral, 40 mg/kg twice daily, 21 days): 35.1%
COCCCCCCC1CC2C(CCC3(C)C(O)CCC23)c2ccc(O)cc21 (stereo not shown)  mRNA level ratio (A549; microarray, item: ISG20L1; 50 µM; reference: untreated): 2.21
CN1CCC[C@H]1COc1nc2c(c(N3CCN(C(=O)C4CC4)[C@@H](CC#N)C3)n1)CCN(c1cccc3cccc(Cl)c13)C2  IC50 (GTPase KRas (KRAS, Homo sapiens, UniProt P01116, Q61L); target engagement in cells, BRET): 3.2 µM
Cc1ccc(O)c(C)c1-c1cnc2[nH]c(-c3cnc(N4CCC(CN5CCN(c6cc7c(cc6F)n(C6CCC(=O)NC6=O)c(=O)n7C)CC5)CC4)nc3)cc2c1C#N (stereo not shown)  phospho-CDK1 (Thr14) level (HCC1569; CDK1 Thr14 phosphorylation, in-cell western; 4.12 nM; lower = stronger inhibition): 7.2 a.u. and 7.8 a.u.
CS(=O)(=O)c1ccc(OC/C(=C/F)CN)cc1.Cl  inhibition (Myeloperoxidase (MPO, Homo sapiens, UniProt P05164); enzyme activity, inhibitor, fluorescence; 0.1235 µM): -4.05% and 3.82% and 1.34%
CC(=O)N[C@@H](Cc1c[nH]c2ccccc12)C(=O)N[C@@H](CCC(=O)C=[N+]=[N-])C(=O)OC(CF)CF  DON concentration (P493B lymphoma cells; P493B cells in human plasma; concentration not given, tumour cell fraction of partition): 2.06 nmol/g
Cc1nc(C)c(C=[N+]([O-])C(C)(C)C)nc1C  pSer9-GSK3β/total GSK3β (Western blot; MPTP mouse model; 90 mg/kg): 290 and 433 and 288 and 509
C#Cc1cccc2cc(O)cc(-c3ncc4c(N5CC6CCC(C5)N6)nc(OCC56CCCN5CCC6)nc4c3F)c12  normalized BRET (GTPase HRas (HRAS, Homo sapiens, UniProt P01112); binding, competitor, NanoBRET; HEK293; 1.52 nM): 85.3% and 99.5% and 102%
Cc1ccc(O)c(C)c1-c1cnc2[nH]c(-c3cnc(N4CCC(CN5CCN(c6ccc(NC7CCC(=O)NC7=O)cc6F)CC5)CC4)nc3)cc2c1C#N (stereo not shown)  oral bioavailability (cynomolgus monkey, male, plasma; oral, 10 mg/kg, intravenous and oral dosing): 5.1%
CN1CCC[C@H]1COc1nc2c(c(N3CCN(C(=O)C(F)(F)F)[C@@H](CC#N)C3)n1)CCN(c1cccc3cccc(Cl)c13)C2  IC50 (HEK293 RAS-independent; cell growth, CellTiter-Glo): 2.7 µM
Cc1ccc(O)c(C)c1-c1cnc2[nH]c(-c3cnc(N4CCC(CN5CCN(c6ccc7c(c6F)CN(C6CCC(=O)NC6=O)C7=O)CC5)CC4)nc3)cc2c1C#N (stereo not shown)  AUC(0-t) (female CD-1 mouse, plasma; oral, 20 mg/kg): 5360 ng·h/mL

Some of these lines once more (set 4):
CCn1cnc2c(NCc3nc4cc(Cl)c(Cl)cc4[nH]3)nc(N3CCN(C(=O)c4cccnc4)CC3)nc21: 88.4%
CCn1cnc2c(NCc3nc4cc(Cl)c(Cl)cc4[nH]3)nc(N3CCN(Cc4ccncc4)CC3)nc21: 74.3%
CC(=O)N1CCN(c2nc(NCc3nc4cc(Cl)c(Cl)cc4[nH]3)c3ncn(C)c3n2)CC1: 67.8%
CC(=O)N1CCN(c2nc(NCc3nc4cc(Cl)c(Cl)cc4[nH]3)c3ncn(C(C)C)c3n2)CC1: 13.5%
CCn1cnc2c(NCc3nc4cc(F)c(F)cc4[nH]3)nc(N3CCn4ncnc4C3)nc21: 86.2%
CCn1cnc2c(NCc3nc4cc(Cl)c(Cl)cc4[nH]3)nc(N3CCN(C(=O)c4ccccn4)CC3)nc21: 87.6%
CCn1cnc2c(NCc3nc4cc(Cl)c(Cl)cc4[nH]3)nc(N3CCN(C(=O)c4ccncc4)CC3)nc21: 91.9%
